Published values from different studies.
Each numbered part is a random draw from the data of one study; scales do not carry over between parts.

Block 1
Target: Sal-like protein 4, full length isoform A (SALL4, Homo sapiens, UniProt Q9UJQ4, residues 1-1053)
Chain of UniProt Q9UJQ4 (whole entry, looked up): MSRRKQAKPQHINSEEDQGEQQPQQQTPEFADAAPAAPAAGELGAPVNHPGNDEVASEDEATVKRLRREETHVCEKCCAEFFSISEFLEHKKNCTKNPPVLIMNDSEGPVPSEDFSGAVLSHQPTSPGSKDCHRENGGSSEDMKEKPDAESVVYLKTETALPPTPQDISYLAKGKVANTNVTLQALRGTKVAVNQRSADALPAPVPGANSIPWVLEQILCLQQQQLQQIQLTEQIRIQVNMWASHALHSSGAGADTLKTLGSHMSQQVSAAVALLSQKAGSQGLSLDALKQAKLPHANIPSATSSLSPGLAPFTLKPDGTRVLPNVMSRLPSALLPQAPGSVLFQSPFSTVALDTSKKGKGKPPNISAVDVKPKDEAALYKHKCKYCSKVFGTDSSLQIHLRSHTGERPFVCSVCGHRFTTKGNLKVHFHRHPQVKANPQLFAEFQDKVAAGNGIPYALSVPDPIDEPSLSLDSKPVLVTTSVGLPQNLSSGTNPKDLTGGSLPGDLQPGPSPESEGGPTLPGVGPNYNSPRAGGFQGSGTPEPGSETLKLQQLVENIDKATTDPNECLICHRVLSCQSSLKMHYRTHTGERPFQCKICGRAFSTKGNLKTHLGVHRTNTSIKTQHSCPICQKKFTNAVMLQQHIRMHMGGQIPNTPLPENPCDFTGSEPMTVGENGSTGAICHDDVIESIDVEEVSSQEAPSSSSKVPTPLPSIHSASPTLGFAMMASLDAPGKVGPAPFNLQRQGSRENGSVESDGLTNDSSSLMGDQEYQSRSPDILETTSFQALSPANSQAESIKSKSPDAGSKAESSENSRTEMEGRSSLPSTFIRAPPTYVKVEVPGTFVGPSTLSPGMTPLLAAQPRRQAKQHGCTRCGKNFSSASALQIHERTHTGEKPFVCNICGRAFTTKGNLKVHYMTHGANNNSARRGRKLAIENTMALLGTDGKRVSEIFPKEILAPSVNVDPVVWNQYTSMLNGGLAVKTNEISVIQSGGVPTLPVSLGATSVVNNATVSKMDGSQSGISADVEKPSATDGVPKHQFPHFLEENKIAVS
Technique: universal PBM
Form: double-stranded DNA, one strand shown
Sample: in vitro
Concentration: 600 nM
Notes: 8-mer, flanks averaged, mean of replicates
Reading: higher = stronger binding
| Oligonucleotide | E-score |
| --- | --- |
| CGCCTAGC | -0.248 |
| CGTGATCC | -0.322 |
| ACAATTTA | 0.287 |
| AATTACGG | 0.112 |
| AGAATCCC | -0.0653 |
| GATCGACC | -0.269 |
| CAATGCAC | 0.109 |
| CTTAAAAA | 0.233 |
| GGTGTCTA | 0.0501 |
| CTACATAG | 0.149 |
| AAACCAAC | 0.0696 |
| GCCAAGGA | -0.117 |
| GACTAGTC | -0.134 |
| CCGACAGG | -0.201 |
| GCAGTGAA | 0.128 |
| CCTTCTAA | 0.109 |
| ACTCGGAG | -0.0699 |
| TAGGCTCA | -0.0812 |
| TAGCACCA | -0.11 |
| AGCACAAA | 0.0619 |

Block 2
Target: Interferon regulatory factor 5, full length, phosphomimetic (IRF5, Homo sapiens, UniProt Q13568-2, residues 1-514, K96S/S451D/S453D/S456D/S462D)
Technique: protein-binding microarray
Form: double-stranded DNA, one strand shown
Sample: in vitro
Concentration: 250 nM
Notes: 60-bp whole probe
Added: salmon DNA 0.4 mg/ml
Reference: random background probes
Reading: higher = stronger binding
All sequences stand within: GCCTAGCAC … GTCTTGATTCGCTTGACGCTGCTG
| Oligonucleotide | log fluorescence [z-score] |
| --- | --- |
| GACGATATCAGTTTCGCGACGTGCTAG | 3.15 |
| TTAGATATCAGTATCGATAAGTGCTAG | 7.74 |
| TTAGGGCTGCTTATCCTTTAGTGCTAG | -0.641 |
| GACGGTTCGCTTTTCCTGACGTGCTAG | 0.2 |
| TCAAGAATCACAACTAGGACTGTGCTA | 0.0344 |
| AACTTTTTTTAATTGAGAAGGTGCTAG | 0.464 |
| GACGGTATCGGTTTCGGGAGGTGCTAG | 8.41 |
| GTTTATTTATTTTTACATTAGTGCTAG | 1.36 |
| GCCGAACTGGGGTATCGAGACGTGCTA | 0.253 |
| TGTTTTTCATTGTTTTTCATCGTGCTA | 2.84 |
| ATAAACTTAGTTTTCAATTTGTGCTAG | 1.41 |
| CTAGGTATCGACTATCGGTTAGTGCTA | 7.46 |
| TTAGGTACCGGACTGGGTTAGTGCTAG | -0.222 |
| TTAGATCTCAAACTGGATTAGTGCTAG | -0.111 |
| GGAGGGGGGCGGGGCGGTGGGTGCTAG | 2.82 |
| TCAGCATTGCTTCTATAACTGTGCTAG | 0.152 |
| TCACTGCTACCCTTTGAAACTGTGCTA | 0.236 |
| CTCTAACTCAAGATTCCTCTCGTGCTA | 0.3 |
| TTAGATATCGGGTTTCGAGTAGTGCTA | 4.84 |
| TCAACTCTTTACATGGGACTGTGCTAG | -0.0509 |
| CTAGTTGTACTTTCTATCTCTGTGCTA | 2.98 |
| TTAGAACTAAGTCTCGATTAGTGCTAG | 0.692 |
| GACGATCTCAGTCTAGAGACGTGCTAG | -0.306 |
| TTATATACCTGTATATCTTCGTGCTAG | 0.599 |
| TTAGAACTGGACTTTCGGTTAGTGCTA | 9.73 |

Block 3
Target: Centromere-binding protein 1, full length, N-terminal tag (CBF1, Saccharomyces cerevisiae, UniProt P17106, residues 1-351)
Chain of UniProt P17106 (whole entry, looked up): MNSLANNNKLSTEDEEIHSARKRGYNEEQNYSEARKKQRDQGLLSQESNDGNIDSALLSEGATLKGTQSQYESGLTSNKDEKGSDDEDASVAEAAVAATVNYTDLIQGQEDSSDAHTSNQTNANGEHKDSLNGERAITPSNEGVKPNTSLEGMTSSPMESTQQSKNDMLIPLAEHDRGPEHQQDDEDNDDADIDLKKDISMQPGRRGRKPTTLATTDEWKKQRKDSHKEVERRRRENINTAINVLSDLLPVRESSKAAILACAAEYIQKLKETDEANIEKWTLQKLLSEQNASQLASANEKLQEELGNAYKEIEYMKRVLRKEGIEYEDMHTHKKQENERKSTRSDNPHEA
Technique: protein-binding microarray
Form: double-stranded DNA, one strand shown
Sample: in vitro
Concentration: 0.8 µM
Notes: whole 60-bp probe, no competitor
Reading: higher = stronger binding
| Oligonucleotide | fluorescence intensity [a.u.] |
| --- | --- |
| CTATACATGACGTGAAATGTGCACGGGGAAATGTTCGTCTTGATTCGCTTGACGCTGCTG | 826 |
| CCTAACTACTATATTATCATGACATAGCTTCGTACAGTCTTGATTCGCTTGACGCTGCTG | 578 |
| GAATCTTTCACTTATCTGATGTTCCTGATTGCCTAGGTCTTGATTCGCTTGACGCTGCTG | 545 |
| CTATTTTATGGACCTGATGCAATCTAGTAGTCCTTCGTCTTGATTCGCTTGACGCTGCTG | 488 |
| CTATTTGTTTTCCTTCACATGATGAAGAAGGTTTTCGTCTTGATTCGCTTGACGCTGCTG | 1020 |
| GAATTATTAGCTCACGTGTATACATGTATATAGTAGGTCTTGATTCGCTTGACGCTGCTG | 6850 |
| CTATACAAGAAATATCACGTTGGCGCGCGCTAATTCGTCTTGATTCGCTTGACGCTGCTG | 795 |
| GAAATAGGCAGTCTCCACGCGATGCCGCCACTTTAGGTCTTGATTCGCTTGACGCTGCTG | 523 |
| CCTAACTACTATACAGACATGATATAGCTTCGTACAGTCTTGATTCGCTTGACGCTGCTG | 524 |
| GAAAGAGAAAAAAAGAATGATCACAAGAAAACTTAGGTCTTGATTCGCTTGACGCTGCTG | 572 |
| GAAGATTTTCGCGTTCACGCCATTATCCAATGTTAGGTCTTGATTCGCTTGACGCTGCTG | 548 |
| GAATATAAAGTATGTCATGAGTAAACTAGTTGATAGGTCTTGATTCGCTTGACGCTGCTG | 554 |
| GAACTTTATTTTTTTGGCGTGACCAGCGGGTACTAGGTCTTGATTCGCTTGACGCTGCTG | 1110 |
| GAATGCTGCCACCCTCACCTCACTAACGCTGCGTAGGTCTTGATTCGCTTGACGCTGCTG | 484 |
| GAACACTGTTTATGTTGTGTGAACTTGTTGTAATAGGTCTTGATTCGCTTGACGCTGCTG | 540 |
| GAAAAAACGAAAAGGCACGCATGGCTTGCGAAATAGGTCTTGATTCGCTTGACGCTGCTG | 510 |
| GAATAGGAACGACGTGGTGTAGTGAATTACTTTTAGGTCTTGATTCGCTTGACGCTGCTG | 511 |
| CTAGTCAACAAGACCCACGTTGGTCAATTGAAATTCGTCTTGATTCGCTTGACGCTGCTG | 494 |
| CTATCTTCAACAAGAAACGTGACGGAACTCATATTCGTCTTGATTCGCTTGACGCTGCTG | 1460 |
| TGTACGAAGCTATTCCACATGACTATAGTAGTTAGGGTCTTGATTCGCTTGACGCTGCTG | 813 |

Block 4
Target: Prothrombin, mature alpha-thrombin (F2, Homo sapiens, UniProt P00734)
Technique: aptamer microarray, sandwich
Form: DNA with 2'F-ANA
Sample: in vitro
Concentration: 200 nM
Notes: whole 15-mer aptamer, many near background
Added: Cy3 exosite-II aptamer, 400 nM
Reading: higher = stronger binding
Oligonucleotide: GGTTGGTGTGGTTGG
| Modification | mean fluorescence intensity |
| --- | --- |
| 2'F-ANA at 1 3 4 7 11 13 14 | 71.6 a.u. |
| 2'F-ANA at 1 2 3 5 7 10 13 | 47.8 a.u. |
| 2'F-ANA at 4 5 8 9 10 15 | 55.5 a.u. |
| 2'F-ANA at 1 3 6 7 8 10 11 12 14 | 68.7 a.u. |
| 2'F-ANA at 4 5 6 7 11 13 | 54 a.u. |
| 2'F-ANA at 1 3 4 5 6 9 11 14 15 | 68.7 a.u. |
| 2'F-ANA at 1 3 4 5 6 10 13 14 | 48.5 a.u. |
| 2'F-ANA at 1 2 4 7 10 13 14 15 | 49.7 a.u. |
| 2'F-ANA at 2 3 6 11 14 15 | 441 a.u. |
| 2'F-ANA at 1 3 4 9 11 13 15 | 127 a.u. |
| 2'F-ANA at 5 6 7 8 9 13 14 | 45.5 a.u. |
| 2'F-ANA at 3 6 7 8 9 13 14 15 | 520 a.u. |
| 2'F-ANA at 1 2 8 10 11 13 14 | 48.5 a.u. |
| 2'F-ANA at 1 4 5 6 9 12 14 15 | 109 a.u. |
| 2'F-ANA at 5 6 13 | 54.5 a.u. |
| 2'F-ANA at 2 3 5 7 9 10 | 53.7 a.u. |

Block 5
Target: RNA binding protein fox-1 homolog 2, RRM domain, GST-SBP tag (RBFOX2, Homo sapiens, UniProt O43251-10, residues 100-194)
Technique: RNA Bind-n-Seq
Form: RNA
Sample: in vitro
Concentration: 365 nM
Notes: natural RNA segment, single round, ends assumed
Reference: no-protein control
Reading: higher = stronger binding
Construct (chain): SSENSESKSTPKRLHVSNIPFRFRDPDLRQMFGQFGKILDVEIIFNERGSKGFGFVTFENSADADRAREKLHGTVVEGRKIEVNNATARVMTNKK
| Oligonucleotide | RBNS enrichment (R) |
| --- | --- |
| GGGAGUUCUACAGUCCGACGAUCCAUUGUCUAAGCACCGGCAAAUUAAAAUGUCGAGAAUCACUUCAGUCAAAAACCUUUAUAUUCUGUUCUUAAUAAUGUUUGUGCCAACCUAUAUCCCAUGUAAGGGAUCUUGGAAUUCUCGGGUGCCAA | 0.692 |
| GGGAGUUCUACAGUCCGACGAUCCAGUGUUGCCCAGAUGCAUUUUACAUCACUGUAAAGAGAUUACUUUUGUGGUUACUACCUGGCUUGGCUGGCCUUGCGGUUCACCAGAUUAAUUUACAAACUCCCCCACUUGGAAUUCUCGGGUGCCAA | 0.315 |
| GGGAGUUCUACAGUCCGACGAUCGAAGAAUCUGUGAACAAAUACUUGAAAAUGGGUUCAAUGUAGACUGCCAUUAUGUGUGGUCUUCCCAUUAAAUGUGAACAUUUUAAUAUGUAUGCAUUCACCUUGCCUCUUGGAAUUCUCGGGUGCCAA | 0.277 |
| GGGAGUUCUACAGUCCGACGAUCACUAAAGUGCCCGGUUUUAGCCACAGACAACUGCUUAGAUGUCACCUCUUGGCUGACCAAAGCUGGGACAGGGCUUUAACCAGACAUAGGAGCAGUGUGCAAUUCCUGAUUGGAAUUCUCGGGUGCCAA | 0.342 |
| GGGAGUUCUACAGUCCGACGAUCAAACUAUCAGGAAAAAAACCAAAACUUUAUACCAAUGAUUUAGUAAUUUUGAGGCAUAGGGUAGCUUACGUAGUGGAGGAUGUGCCAAAUAUUCUCUUCAAAUGCCACCUUGGAAUUCUCGGGUGCCAA | 0.275 |
| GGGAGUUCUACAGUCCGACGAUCUCAGUAUUGUAGAUACUAAACCAGUUUUCCCACAUGAAAGGCAGGAAGAGUUUUGAUUCUGUCCUUUUUUACUUGACAGUUUUACUAUGACACUAGACUCAGUAGAUUUUUGGAAUUCUCGGGUGCCAA | 0.886 |
| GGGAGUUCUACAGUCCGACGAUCUGACUGGGAAGGACAUAAAAGGUUUAAUGUCAGGGUCAAACUACAUUGAGCCCCUGAGGACAGGGGCAUCUCUGGGCUGAGCCUACUGUCUCCUUCCCACUGUCCUUUCUUGGAAUUCUCGGGUGCCAA | 0.235 |
| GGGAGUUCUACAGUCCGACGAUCCAUGAUAAAGAUUAUUAUUUAAGAUAUACUUGUAUUUAUACCUCAGAUAUUCUUUCGGGUUUUGUACCUCAAGGUUCCCCUCCCCACAUUGUAAAUACACUUUAAGUGAAUGGAAUUCUCGGGUGCCAA | 0.455 |
| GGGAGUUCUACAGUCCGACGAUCCGAACAGGGCGAAGAGCUGGUUAGGGUCAGACAACCUCGGUGGCCUGUGUGUCACUUCCCUCACCUCACAGGCUGUGACCCUACCCUGGGUCCCUUGUACAUAACUCCUUUGGAAUUCUCGGGUGCCAA | 0.27 |
| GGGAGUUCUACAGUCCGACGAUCACCUGAUGCCAGAUUUUUUUCAUAAAUAUUCUGCCUACUGUAAAUAUGGGUUCCUCUGAGUUGUUUUAGAAAAUUAGCGCAAUGUAUUAAAAUCAAGUGUUAGGAAAUUUUGGAAUUCUCGGGUGCCAA | 0.538 |
| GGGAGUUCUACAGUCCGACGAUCUAGGAGCCUCUGUUCUUACCUAUUUCCAUAUACAGCUGCCUGGAGGAUGCUUUUUUUCCAGGACAGAUAGGUUCUGGAUCUCAGGGGUGAGAUAGGGGGCAGCCUUCAAUUGGAAUUCUCGGGUGCCAA | 0.394 |
| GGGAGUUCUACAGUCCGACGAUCCCCCAGUAAGCCACUGCCACACGUCUGACCCUCUCCACCCCAUAGUGACCGGCUGCUUUUCCCUAAGCCAAGGGCCUCUUGCGGUCCCUUCUUACUCACACACAAAAUGUUGGAAUUCUCGGGUGCCAA | 0.415 |
